# Measurements gathered from unrelated publications.
# Numbered parts are unrelated; each lists some results of a single study. Values joined by “and” are separate records of one study, mostly repeats; a detail may differ. Substitutions count along the parent as printed.
# UniProt P35916, sequence (whole entry, looked up): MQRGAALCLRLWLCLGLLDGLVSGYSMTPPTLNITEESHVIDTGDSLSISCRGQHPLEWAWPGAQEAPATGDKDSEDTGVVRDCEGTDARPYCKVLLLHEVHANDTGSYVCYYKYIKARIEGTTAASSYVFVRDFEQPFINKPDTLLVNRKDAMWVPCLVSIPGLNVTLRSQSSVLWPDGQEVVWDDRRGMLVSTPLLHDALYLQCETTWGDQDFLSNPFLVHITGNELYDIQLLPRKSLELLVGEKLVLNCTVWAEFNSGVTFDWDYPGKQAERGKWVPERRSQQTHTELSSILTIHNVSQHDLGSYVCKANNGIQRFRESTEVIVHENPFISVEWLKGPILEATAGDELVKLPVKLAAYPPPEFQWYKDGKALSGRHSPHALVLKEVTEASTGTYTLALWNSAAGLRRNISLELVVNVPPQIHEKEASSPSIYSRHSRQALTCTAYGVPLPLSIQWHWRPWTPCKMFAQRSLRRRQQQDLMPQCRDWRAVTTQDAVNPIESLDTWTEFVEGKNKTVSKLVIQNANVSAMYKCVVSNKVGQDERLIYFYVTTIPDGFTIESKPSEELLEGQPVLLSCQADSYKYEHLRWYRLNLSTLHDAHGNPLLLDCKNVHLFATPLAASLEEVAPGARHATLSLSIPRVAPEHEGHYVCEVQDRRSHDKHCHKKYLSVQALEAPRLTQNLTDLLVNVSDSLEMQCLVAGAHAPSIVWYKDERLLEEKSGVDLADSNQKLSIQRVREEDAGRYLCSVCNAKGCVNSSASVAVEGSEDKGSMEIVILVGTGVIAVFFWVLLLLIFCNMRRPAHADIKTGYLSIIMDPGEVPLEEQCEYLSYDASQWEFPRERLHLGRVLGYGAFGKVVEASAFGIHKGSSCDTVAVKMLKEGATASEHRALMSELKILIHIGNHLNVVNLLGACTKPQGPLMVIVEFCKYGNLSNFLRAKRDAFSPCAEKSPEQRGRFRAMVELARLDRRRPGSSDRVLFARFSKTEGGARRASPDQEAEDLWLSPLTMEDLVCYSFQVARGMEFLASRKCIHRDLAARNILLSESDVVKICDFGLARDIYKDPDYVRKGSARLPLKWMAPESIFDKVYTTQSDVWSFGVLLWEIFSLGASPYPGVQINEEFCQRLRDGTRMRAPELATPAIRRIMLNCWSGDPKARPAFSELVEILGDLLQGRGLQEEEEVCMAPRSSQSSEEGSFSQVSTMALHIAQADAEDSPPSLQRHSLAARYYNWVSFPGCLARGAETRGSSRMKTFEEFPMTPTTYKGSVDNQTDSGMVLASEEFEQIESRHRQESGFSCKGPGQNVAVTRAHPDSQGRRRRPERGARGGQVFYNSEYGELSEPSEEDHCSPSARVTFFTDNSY
# UniProt P11309, sequence (whole entry, looked up): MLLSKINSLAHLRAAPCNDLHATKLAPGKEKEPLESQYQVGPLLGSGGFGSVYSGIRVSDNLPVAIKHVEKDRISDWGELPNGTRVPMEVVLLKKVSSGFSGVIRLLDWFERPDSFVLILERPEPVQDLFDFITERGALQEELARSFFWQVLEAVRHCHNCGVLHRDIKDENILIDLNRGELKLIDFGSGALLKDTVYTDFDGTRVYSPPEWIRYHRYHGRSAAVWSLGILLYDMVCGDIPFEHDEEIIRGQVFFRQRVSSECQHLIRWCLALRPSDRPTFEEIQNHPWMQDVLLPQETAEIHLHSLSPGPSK
# UniProt P68400, sequence (whole entry, looked up): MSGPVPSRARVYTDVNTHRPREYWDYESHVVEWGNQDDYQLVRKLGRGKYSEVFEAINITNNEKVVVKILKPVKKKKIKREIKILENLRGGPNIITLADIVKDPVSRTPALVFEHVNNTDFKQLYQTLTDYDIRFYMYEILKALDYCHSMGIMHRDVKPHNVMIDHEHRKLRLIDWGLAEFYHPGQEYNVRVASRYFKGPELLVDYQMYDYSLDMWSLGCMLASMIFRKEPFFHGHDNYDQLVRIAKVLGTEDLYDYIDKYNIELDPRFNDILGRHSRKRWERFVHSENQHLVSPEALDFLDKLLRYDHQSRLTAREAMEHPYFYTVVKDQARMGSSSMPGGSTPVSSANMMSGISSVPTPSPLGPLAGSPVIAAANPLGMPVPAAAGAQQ
# UniProt P07949, sequence (whole entry, unmodified, looked up): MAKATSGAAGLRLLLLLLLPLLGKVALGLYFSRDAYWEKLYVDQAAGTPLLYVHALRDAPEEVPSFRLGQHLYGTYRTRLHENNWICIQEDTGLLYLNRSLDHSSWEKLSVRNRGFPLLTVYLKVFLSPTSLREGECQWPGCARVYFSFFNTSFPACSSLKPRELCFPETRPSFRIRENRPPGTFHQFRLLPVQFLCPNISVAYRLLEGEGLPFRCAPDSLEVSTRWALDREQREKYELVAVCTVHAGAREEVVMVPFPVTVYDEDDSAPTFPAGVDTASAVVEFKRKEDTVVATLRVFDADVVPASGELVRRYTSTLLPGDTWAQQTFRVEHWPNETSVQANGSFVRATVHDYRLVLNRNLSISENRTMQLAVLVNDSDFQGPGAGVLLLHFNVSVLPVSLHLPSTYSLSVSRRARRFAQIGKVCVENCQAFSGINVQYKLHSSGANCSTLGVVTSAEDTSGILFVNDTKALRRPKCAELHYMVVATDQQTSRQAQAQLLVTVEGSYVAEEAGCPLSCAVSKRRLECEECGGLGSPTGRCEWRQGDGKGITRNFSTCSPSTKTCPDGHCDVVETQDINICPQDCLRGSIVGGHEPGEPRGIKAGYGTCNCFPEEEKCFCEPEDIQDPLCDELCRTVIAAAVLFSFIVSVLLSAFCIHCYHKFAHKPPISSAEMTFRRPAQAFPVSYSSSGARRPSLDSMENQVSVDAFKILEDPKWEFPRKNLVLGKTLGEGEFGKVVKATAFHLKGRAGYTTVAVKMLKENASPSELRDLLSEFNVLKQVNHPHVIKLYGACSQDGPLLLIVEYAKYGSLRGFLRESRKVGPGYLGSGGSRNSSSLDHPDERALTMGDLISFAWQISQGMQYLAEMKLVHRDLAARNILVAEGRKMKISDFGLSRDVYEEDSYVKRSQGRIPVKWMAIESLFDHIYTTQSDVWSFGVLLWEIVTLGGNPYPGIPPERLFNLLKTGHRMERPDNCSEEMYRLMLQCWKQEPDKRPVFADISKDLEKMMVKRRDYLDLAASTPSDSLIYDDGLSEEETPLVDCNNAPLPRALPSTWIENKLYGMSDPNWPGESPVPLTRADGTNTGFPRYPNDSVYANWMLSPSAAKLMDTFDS
# UniProt Q8TDR2, sequence (whole entry, looked up): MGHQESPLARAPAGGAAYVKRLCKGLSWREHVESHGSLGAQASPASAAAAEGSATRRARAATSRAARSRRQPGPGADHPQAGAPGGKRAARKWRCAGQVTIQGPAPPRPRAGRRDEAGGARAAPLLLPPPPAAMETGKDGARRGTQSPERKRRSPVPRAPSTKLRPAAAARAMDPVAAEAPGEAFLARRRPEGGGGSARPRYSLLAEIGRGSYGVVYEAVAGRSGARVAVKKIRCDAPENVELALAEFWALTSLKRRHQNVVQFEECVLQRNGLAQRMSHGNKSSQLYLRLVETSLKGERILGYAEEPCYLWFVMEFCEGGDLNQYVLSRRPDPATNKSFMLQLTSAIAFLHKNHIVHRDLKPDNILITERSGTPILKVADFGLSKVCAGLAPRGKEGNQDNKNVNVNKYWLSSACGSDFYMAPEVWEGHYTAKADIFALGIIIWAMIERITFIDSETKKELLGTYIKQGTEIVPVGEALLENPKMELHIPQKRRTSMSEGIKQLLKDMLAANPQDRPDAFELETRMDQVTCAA
# UniProt P15056, sequence (whole entry, looked up): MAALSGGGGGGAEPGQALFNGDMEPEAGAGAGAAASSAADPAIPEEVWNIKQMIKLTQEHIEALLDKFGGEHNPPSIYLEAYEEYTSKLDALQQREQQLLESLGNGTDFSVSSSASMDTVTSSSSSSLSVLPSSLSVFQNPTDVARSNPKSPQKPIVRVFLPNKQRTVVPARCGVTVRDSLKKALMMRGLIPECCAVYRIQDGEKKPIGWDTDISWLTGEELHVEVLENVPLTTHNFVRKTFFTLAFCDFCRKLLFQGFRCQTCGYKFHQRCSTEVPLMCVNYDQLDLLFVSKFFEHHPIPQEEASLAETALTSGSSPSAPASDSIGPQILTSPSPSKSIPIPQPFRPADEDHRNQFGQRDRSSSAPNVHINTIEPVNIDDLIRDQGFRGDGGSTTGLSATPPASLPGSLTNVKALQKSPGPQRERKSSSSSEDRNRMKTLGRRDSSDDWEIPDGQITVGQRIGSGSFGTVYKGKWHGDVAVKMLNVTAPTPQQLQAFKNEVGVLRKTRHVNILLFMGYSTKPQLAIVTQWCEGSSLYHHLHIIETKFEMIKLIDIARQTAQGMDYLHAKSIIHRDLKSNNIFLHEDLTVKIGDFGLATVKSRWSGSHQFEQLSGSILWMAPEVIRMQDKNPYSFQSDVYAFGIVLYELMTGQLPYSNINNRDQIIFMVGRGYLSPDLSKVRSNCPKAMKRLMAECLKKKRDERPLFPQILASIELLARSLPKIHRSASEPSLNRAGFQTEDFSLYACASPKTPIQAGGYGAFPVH
# UniProt Q99640, sequence (whole entry, looked up): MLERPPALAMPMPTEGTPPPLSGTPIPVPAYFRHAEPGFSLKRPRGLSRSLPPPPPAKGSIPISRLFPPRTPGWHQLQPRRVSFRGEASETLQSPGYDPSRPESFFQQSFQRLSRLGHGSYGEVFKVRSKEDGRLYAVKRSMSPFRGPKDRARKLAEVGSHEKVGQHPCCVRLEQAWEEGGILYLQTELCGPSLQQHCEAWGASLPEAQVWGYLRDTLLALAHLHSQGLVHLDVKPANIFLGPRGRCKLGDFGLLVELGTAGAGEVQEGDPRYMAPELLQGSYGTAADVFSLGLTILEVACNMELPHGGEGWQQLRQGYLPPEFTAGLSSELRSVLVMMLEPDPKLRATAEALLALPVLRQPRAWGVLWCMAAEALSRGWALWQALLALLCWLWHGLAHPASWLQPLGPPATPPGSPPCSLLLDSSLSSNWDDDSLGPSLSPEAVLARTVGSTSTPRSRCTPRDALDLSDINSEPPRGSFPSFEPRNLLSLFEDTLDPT

# Series 1
# Cell line: mouse MPNST tumor cells
# Technique: high-content nuclear imaging
# Refers to: cell number
# Concentration: 10 µM
# Time: 12 h
# Notes: mean of 2 replicates
# Reference: plate mean
# Reading: higher = more cells
Structure (SMILES),nuclei count
CC(CN(C)C)CN1c2ccccc2CCc2ccccc21 (centres unmarked),0.374 z-score
CCOc1ccccc1OC(c1ccccc1)C1CNCCO1 (centres unmarked),2.99 z-score and 3.71 z-score
CC1(C)O[C@@H]2C[C@H]3[C@@H]4C[C@H](F)C5=CC(=O)CC[C@]5(C)[C@H]4[C@@H](O)C[C@]3(C)[C@]2(C(=O)CO)O1,2.55 z-score
Oc1nc(-c2ccc(C(F)(F)F)cc2)nc2c1CSCC2,-0.214 z-score

# Series 2
# Host: mouse
# Medium: microsomes or S9
# Concentration: 2 µM
# Time: 0.5 h
Structure (SMILES),remaining compound
Cc1cc(C)n(-c2nncn2/N=C/c2cccc3ccccc23)n1,9.44%
CC(=O)NCCOC(=O)c1ccc(Cl)c(S(=O)(=O)N(C)C)c1,25.6%
C/C=C/C=C/C(=O)N1CCN(C(C)C(N)=O)CC1 (centres unmarked),70.5%
COc1ccccc1CC(=O)c1ccc(O)c(O)c1O,16.2%
CCc1nc(NCCCn2ccnc2)c2c3c(sc2n1)CCCC3,24.7%
CCc1ccc(NC(=O)N2Cc3c(sc4c3CCCC4)-n3cccc3C2C(C)C)cc1 (centres unmarked),29.6%

# Series 3
# Compound: CN(c1ccnc(CNc2nc(Nc3ccc4c(c3)CC(=O)N4)ncc2C(F)(F)F)n1)S(C)(=O)=O
# Read-out: cell-free assay
# Technique: competition with immobilised ligand
# Concentration: 1 µM
target,remaining binding
"PTK2 (Homo sapiens, UniProt Q05397)",4.9%
"PIK3CA (Homo sapiens, UniProt P42336, H1047L)",92%
"PIM1 (Homo sapiens, UniProt P11309)",79%
"STK35 (Homo sapiens, UniProt Q8TDR2)",86%
"MAP4K1 (Homo sapiens, UniProt Q92918)",33%
"PLK3 (Homo sapiens, UniProt Q9H4B4)",1.7%
"PKMYT1 (Homo sapiens, UniProt Q99640)",100%
"CSNK2A1 (Homo sapiens, UniProt P68400)",26%
"PRPF4B (Homo sapiens, UniProt Q13523)",23%
"BRAF (Homo sapiens, UniProt P15056)",82%
"TYRO3 (Homo sapiens, UniProt Q06418)",99%
"LRRK2 (Homo sapiens, UniProt Q5S007, G2019S)",7.3%
"FLT4 (Homo sapiens, UniProt P35916)",92%
"RET (Homo sapiens, UniProt P07949, V804M)",31%

# Series 4
# Target: BATF2, bZIP domain (human)
# Technique: DHFR protein complementation
# Medium: yeast
# Notes: single substitutions, most at no-binding floor
# Reference: wild-type JUN-FOS pair
# Reading: higher = stronger binding
# Starting sequence: JUN, bZIP domain (human); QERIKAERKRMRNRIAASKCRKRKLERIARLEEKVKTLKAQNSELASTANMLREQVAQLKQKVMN; partner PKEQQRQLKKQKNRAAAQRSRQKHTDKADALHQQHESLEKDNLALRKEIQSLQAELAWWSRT
Substitution,binding fitness [natural log]
E33Q,-0.432
S47P,-1.42
A40F,-0.472
N42M,-1.25
R30Q,-0.11
A29W,-0.666
K36V,-0.388
A29M,-0.765

# Excerpt of the above (series 1):
Structure (SMILES),nuclei count
Oc1nc(-c2ccc(C(F)(F)F)cc2)nc2c1CSCC2,-0.214 z-score
CCOc1ccccc1OC(c1ccccc1)C1CNCCO1 (centres unmarked),2.99 z-score and 3.71 z-score
CC1(C)O[C@@H]2C[C@H]3[C@@H]4C[C@H](F)C5=CC(=O)CC[C@]5(C)[C@H]4[C@@H](O)C[C@]3(C)[C@]2(C(=O)CO)O1,2.55 z-score
CC(CN(C)C)CN1c2ccccc2CCc2ccccc21 (centres unmarked),0.374 z-score
